Results pooled from the literature.
Each line is one published result; not all experiments were run side by side. ± marks the error that the study gave.

| SMILES | system | setting | AUC(0-t) |
| --- | --- | --- | --- |
| Cc1[nH]c(C)c(S(=O)(=O)Nc2ccc(S(F)(F)(F)(F)F)cc2)c1C(=O)N1CCC(F)(F)C1 | mouse, brain | intraperitoneal, 40 mg/kg | 24300 ng·h/g |
| CC/C(=C(\c1ccccc1)c1ccc(OCCN(C)C)cc1)c1ccccc1 | CD-1 mouse, male, plasma | intraperitoneal, 30 mg/kg | 6820 ng·h/mL |
| CCCCCCCC(=O)N[C@@H](CCCCN)C(=O)N[C@@H](CCCCN)C(=O)N[C@@H](C)C(=O)N[C@@H](CC(C)C)C(=O)N[C@@H](CCCCN)C(=O)N[C@@H](CC(C)C)C(=O)N[C@@H](C)C(=O)N[C@@H](CCCCN)C(=O)N[C@@H](CCCCN)C(=O)N1CCC[C@H]1C(=O)N[C@@H](CC(C)C)C(=O)N[C@@H](CCCCN)C(=O)N[C@@H](CC(C)C)C(=O)N[C@@H](CC(C)C)C(=O)N[C@@H](CCCCN)C(N)=O | ICR mouse, female, whole blood | intravenous bolus, 3 mg/kg | 270 ± 31 ng·h/mL |
| Cc1ccccc1C(=O)NN=Cc1ccc(O)c(Br)c1 | normal C3H/HeN mouse, plasma | intravenous, 0.8 mg/kg | 121 ng·h/mL |
| NC(=O)c1cccc(-c2cc(OC(=O)NC3CCCCC3)ccc2O)c1 | mouse, plasma | oral, 10 mg/kg, 0 to 24 h | 258 ng·h/mL |
| COc1cc2c(cc1OC)CN(CCc1ccc(NC(=O)c3cccc4c(=O)c5cccc(OC)c5[nH]c34)cc1)CC2 | CD-1 mouse, male, plasma | intraperitoneal, 30 mg/kg | 13400 ng·h/mL |
| CC[C@H](C)C(=O)O[C@H]1C[C@H](O)C=C2C=C[C@H](C)[C@H](CC[C@@H](O)C[C@@H](O)CC(=O)O)[C@H]21 | FVB mouse | oral, dose not given | 0.0437 µM·h |
| CN[C@H]1CC[C@@H](c2ccc(Cl)c(Cl)c2)c2ccccc21 | CD-1 mouse, male, plasma | intraperitoneal, 30 mg/kg | 3220 ng·h/mL |
| Nc1ccc2cc3ccc(N)cc3nc2c1 | male CD-1 mouse, lungs | intravenous, 15 mg/kg | 27500 ng·h/mL |

Some of these lines once more:
| SMILES | system | setting | AUC(0-t) |
| --- | --- | --- | --- |
| NC(=O)c1cccc(-c2cc(OC(=O)NC3CCCCC3)ccc2O)c1 | mouse, plasma | oral, 10 mg/kg, 0 to 24 h | 258 ng·h/mL |
